Measurements collected from several papers.
Each line is one published result; not all experiments were run side by side. “And” joins repeats or separate records; there may be more than shown. Numbers after ± are the reported error.
Cell line: MDA-MB-231

Cc1cc(NS(=O)(=O)c2ccc(NC(=O)/C(C#N)=C/c3cccnc3)cc2)no1  selectivity index (cytotoxicity, MTT; relative to: HSF over MDA-MB-231 IC50): > 1.09
Cc1cc(=O)[nH]c(=O)n1Cc1cn(-c2cc3ccccc3oc2=O)nn1  growth percentage (NCI60 single dose screen; 10 µM): 98.7%
COc1c(C)c(OCc2ccccc2)c(C)c(O)c1C(=O)/C=C/c1ccccc1  selectivity index (relative to: CL over MDA-MB-231): 0.84
O=C1NC(c2ccccc2)(c2ccccc2)C(=O)N1Cc1cn(-c2cc3ccccc3oc2=O)nn1  growth percentage (NCI60 single dose screen; 10 µM): 75.9%
CCCCN1CCN(c2ccc3[nH]c(-c4ccc5[nH]c(-c6ccc(OCC)cc6)nc5c4)nc3c2)CC1  growth percent (SRB; 10 µM, 48 h): 111%
CC(C)[C@H](NC(=O)c1cc(Cl)ccc1OCCNC(=O)OC(C)(C)C)C(=O)Nc1ccc([N+](=O)[O-])cc1Cl  cleaved caspase-3 level (Western blot; 1, 5, 10 µM, 48 h): increased
CC(=NNC(=O)COc1ccc2c(C)c(Cc3ccccc3)c(=O)oc2c1C)c1ccc(Br)cc1  IC50 (cell viability, MTT): 47.2 µM
CN(C)c1ccc2cc(C(=O)NS(=O)(=O)c3ccccc3-c3ccccc3)oc2c1  maximal inhibition (cell proliferation; concentration not given): 0%
CC(C)[C@H](NC(=O)c1cc(Cl)ccc1OCCN)C(=O)Nc1ccc([N+](=O)[O-])cc1Cl  antiproliferative activity (up to 10 µM, 72 h): inactive
CCc1c(C)c2ccc(OCC(=O)NNC(=S)Nc3ccccc3)c(C)c2oc1=O  IC50 (cell viability, MTT): 88.9 µM
O=c1[nH]cc(F)c(=O)[nH]1  selectivity index (cytotoxicity, MTT; relative to: HSF over MDA-MB-231 IC50): 6.3
Nc1ccccc1NC(=O)c1ccc(CNc2ccc(NC3=C(Cl)C(=O)c4cccnc4C3=O)cc2)cc1  late apoptotic cells (annexin V/PI staining, refers to: annexin V+/PI+; 8 µM, 72 h): 2.75%
Cc1cc(C(=O)NCc2ccc(CNS(=O)(=O)c3ccc4c(c3)CCO4)cc2)n(C)n1  inhibition (Matrigel invasion; 0.1 µM, 22 h, together with: CXCL12α 200 ng/mL): ~55%
O=C(CCCCCCCCC(=O)Nc1ccc(NC2=C(Cl)C(=O)c3cccnc3C2=O)cc1)NO  growth inhibition (MTT; 8 µM, 48 h): 28%
CCCOc1ccc2c(C)c(CC)c(=O)oc2c1C  IC50 (cell viability, MTT): 808 µM
Cc1[nH]c2ccccc2c1C1=C(Cl)C(=O)C(Cl)=C(N2CCOCC2)C1=O  G1 phase cells (PI flow cytometry; 10 µM): 16.5%
CCCNC(=O)[C@H]1O[C@@H]1C(=O)N[C@H](C(=O)N1CCC[C@H]1C(=O)OC)[C@@H](C)CC  EC50 (cell viability, MTT; 4 h, dark): > 100000 nM
O=P(O)(O)C(O)(Cn1ccnc1)P(=O)(O)O  viability (AlamarBlue; 7.5 µM, 72 h; relative to: control): 83 ± 1%
COc1ccc(S(=O)(=O)ON=C2C=C(C)C(=O)C(C)=C2)cc1  sub-G1 cells (flow cytometry; 10 µM, 24 h; relative to: DMSO): increased
C=C1CN(S(=O)(=O)c2ccc(C)cc2)CCCN(CCc2ccccc2)CCCN(S(=O)(=O)c2ccc(C)cc2)C1.Cl  mammosphere formation (1 µM, 48 h, together with: progranulin 1 µg/mL): inhibited
C#C[C@@]1(O)[C@@H](CO)O[C@@H](n2cc(Cl)c3c(N)ncnc32)[C@@H]1O  TGI (cell growth, SRB): 1.01 µM and 0.893 µM
CCn1cc(-c2cc(Cn3ccoc3=N)cc3c2CCN([C@@H](C)c2cc(OC)ccn2)C3=O)c(C(F)(F)F)n1  EC50 (cell growth, inhibitor; 120 h): 63.6 nM
Cc1c(Cc2ccccc2)c(=O)oc2c(C)c(OCC(=O)NN=Cc3ccc(Cl)cc3)ccc12  IC50 (MTT): 37.3 µg/mL
C#C[C@@]1(O)[C@@H](CO)O[C@@H](n2cc(Br)c3c(N)ncnc32)[C@@H]1O  TGI (cell growth, SRB): > 100 µM
CCCCCC(=O)Oc1c(C)c(O)c(C(=O)/C=C/c2ccccc2)c(OC)c1C  selectivity index (relative to: CL over MDA-MB-231): 1.3
COc1ccc(COC[C@@](O)(CNCc2ccc(F)cc2)[C@@H]2CC[C@@H](C)C[C@H]2OCc2ccc(OC)cc2)cc1  IC50 (cell growth, inhibitor, MTT; 72 h): 1.91 µM
C=C1CN(S(=O)(=O)c2ccc(C)cc2)CCCN(CC2CCCCC2)CCCN(S(=O)(=O)c2ccc(OCCO)cc2)C1.Cl  mammosphere formation (4 µM, 48 h, together with: progranulin 1 µg/mL): decreased
CCCN1CCN(c2ccc3nc(-c4ccc5nc(-c6cc(OC)ccc6OC)[nH]c5c4)[nH]c3c2)CC1  growth percent (SRB; 10 µM, 48 h): 107%
COc1cccc2c1C(=O)c1c(O)c3c(c(O)c1C2=O)C[C@@](O)(C(=O)CO)C[C@@H]3O[C@H]1C[C@H](N)[C@H](O)[C@H](C)O1  apoptotic cells (annexin V/PI; concentration not given, 48 h): 21%
CO[C@H]1[C@H](O[C@H]([C@H]2O[C@@H](n3ccc(=O)[nH]c3=O)[C@H](O)[C@@H]2O)[C@H](NCCCNC(=O)[C@@H](NC(=O)[C@@H](NC(=O)N[C@H](C(=O)O)C(C)C)[C@@H]2CCN=C(N)N2)[C@@H](OC(=O)CCCCCCCCCCCCN(O)C(=N)N)C(C)C)C(=O)O)O[C@H](CN)[C@H]1O  lowest effective concentration (apoptosis, staining, annexin V, 7-AAD): 0.25 µM
CCCCN1CCN(c2ccc3nc(-c4ccc5nc(-c6cc(OC)ccc6OC)[nH]c5c4)[nH]c3c2)CC1  growth percent (SRB; 10 µM, 48 h): 110%
CCCCCCCCCC(=O)Oc1c(C)c(O)c(C(=O)/C=C/c2ccccc2)c(OC)c1C  selectivity index (relative to: CL over MDA-MB-231): 1.14
OCc1ccc(Nc2ccc3c(Nc4cccc(C(F)(F)F)c4)ncnc3c2)cc1  early apoptotic cells (annexin V-PE/DAPI; concentration not given, 24 h): 10.1%
Cc1cc(C)n(C(=S)[S][Au][PH](CCCCCC[PH]([Au][S]C(=S)n2nc(C)cc2C)(c2ccccc2)c2ccccc2)(c2ccccc2)c2ccccc2)n1  GI50 (cell growth): 1420 nM
CN1C(=O)C(=O)c2cc3c(c4c2c1cc1ccccc14)OCO3  inhibition (cytotoxicity, MTT; 50 µg/mL, 48 h): < 50%
COc1c(C)c(OC(=O)c2ccc(C)cc2)c(C)c(O)c1C(=O)/C=C/c1ccccc1  selectivity index (relative to: CL over MDA-MB-231): 1.01
CCCN1CCN(c2ccc3[nH]c(-c4ccc5[nH]c(-c6ccc(C(F)(F)F)cc6)nc5c4)nc3c2)CC1  growth percent (SRB; 10 µM, 48 h): -86.9%
CC(C)(C)OCC(NC(=O)c1cc(Cl)ccc1OCCNC(=O)OC(C)(C)C)C(=O)Nc1ccc([N+](=O)[O-])cc1Cl (stereo in doubt)  antiproliferative activity (up to 10 µM, 72 h): inactive

Excerpt of the above:
CCCCCC(=O)Oc1c(C)c(O)c(C(=O)/C=C/c2ccccc2)c(OC)c1C  selectivity index (relative to: CL over MDA-MB-231): 1.3
Cc1cc(C)n(C(=S)[S][Au][PH](CCCCCC[PH]([Au][S]C(=S)n2nc(C)cc2C)(c2ccccc2)c2ccccc2)(c2ccccc2)c2ccccc2)n1  GI50 (cell growth): 1420 nM
O=P(O)(O)C(O)(Cn1ccnc1)P(=O)(O)O  viability (AlamarBlue; 7.5 µM, 72 h; relative to: control): 83 ± 1%
CCn1cc(-c2cc(Cn3ccoc3=N)cc3c2CCN([C@@H](C)c2cc(OC)ccn2)C3=O)c(C(F)(F)F)n1  EC50 (cell growth, inhibitor; 120 h): 63.6 nM
